{"data": "Results from different studies", "note": "Compare with care: the assays were run in different laboratories. ± gives the spread as reported."}
{"Compound": "CN1C(=O)[C@@H](Cc2ccc(O)c(I)c2)NC(=O)CNC(=O)[C@H](Cc2ccc3ccccc3c2)NC(=O)[C@H](CCCNC(=N)N)NC(=O)[C@H]1CCCNC(=O)c1ccc(CNC(=O)CN2CCN(CC(=O)O)CCN(CC(=O)O)CCN(CC(=O)O)CC2)cc1 [lutetium-177 labelled]", "assay": "refers to: 177Lu radioactivity", "system": "female CB-17 SCID mice, Daudi xenograft, tumor", "conditions": "intravenous, 0.16 nmol per mouse, 6 h", "tissue uptake": "6.79 ± 0.68 %ID/g"}
{"Compound": "CCCC[C@H](NC(=O)CNC(=O)CNC(=O)CN1CCN(CC(=O)O)CCN(CC(=O)O)CC1)C(=O)N[C@H]1CC(=O)NCCCC[C@@H](C(N)=O)NC(=O)[C@H](Cc2c[nH]c3ccccc23)NC(=O)[C@H](CCCNC(=N)N)NC(=O)[C@@H](Cc2ccccc2)NC(=O)[C@H](Cc2c[nH]cn2)NC1=O [gallium-67 labelled]", "system": "female C57 mice, B16/F1 melanoma, stomach", "conditions": "intravenous, 0.037 MBq, 24 h", "tissue uptake": "1.21 ± 0.4 %ID/g"}
{"Compound": "O=C([O-])c1cccc(CN(CCN(Cc2cn(Cc3ccccc3)nn2)Cc2cccc(C(=O)[O-])n2)Cc2cn(Cc3ccccc3)nn2)n1.[64Cu+2]", "system": "healthy athymic nude mice, liver", "conditions": "intravenous, 15 min", "tissue uptake": "17.7 %ID/g"}
{"Compound": "N=C(N)NCCC[C@H](NC(=O)CON=C[C@H](F)[C@@H](O)[C@H](O)[C@H](O)CO)C(=O)NCC(=O)N[C@@H](CC(=O)O)C(=O)O [fluorine-18 labelled]", "system": "nude mice U-87 MG tumour, heart", "conditions": "intravenous, 0.5 h", "tissue uptake": "3.56 ± 1.11 %ID/g"}
{"Compound": "CCCC[C@H](NC(=O)CN1CCC(NC(=O)CN2CCN(CC(=O)O)CCN(CC(=O)O)CCN(CC(=O)O)CC2)CC1)C(=O)N[C@H]1CC(=O)NCCCC[C@@H](C(N)=O)NC(=O)[C@H](Cc2c[nH]c3ccccc23)NC(=O)[C@H](CCCNC(=N)N)NC(=O)[C@@H](Cc2ccccc2)NC(=O)[C@H](Cc2c[nH]cn2)NC1=O [gallium-68 labelled]", "system": "C57BL/6J mice male B16-F10 tumour, brain", "conditions": "1 h post injection, unblocked", "tissue uptake": "0.1 %ID/g"}
{"Compound": "O=C([O-])CN1CCN(CC(=O)[O-])CCN(CC(=O)[O-])CCN(CC(=O)[O-])CC1.[64Cu+2]", "system": "healthy athymic nude mice, kidney", "conditions": "intravenous, 1 h", "tissue uptake": "1.66 %ID/g"}
{"Compound": "CC(C)[C@H](NC(=O)[C@@H]1CCCN1C(=O)[C@H](CCCNC(=N)N)NC(=O)[C@H](CS)NC(=O)[C@H](Cc1c[nH]c2ccccc12)NC(=O)[C@H](CCCNC(=N)N)NC(=O)[C@@H](Cc1ccccc1)NC(=O)[C@H](Cc1c[nH]cn1)NC(=O)[C@H](CCC(=O)O)NC(=O)[C@H](CS)NC(=O)[C@H](CS)NC(=O)[C@@H]1CC(=O)N[C@@H](CCCNC(=N)N)C(=O)NCC(=O)N[C@@H](CC(=O)O)C(=O)N[C@H](Cc2ccc(O)cc2)C(=O)N1)C(N)=O [technetium-99m labelled]", "system": "C57 mice B16/F1 melanoma female, intestines", "conditions": "iv, 0.037 MBq, 0.5 h", "tissue uptake": "3.8 ± 0.32 %ID"}
{"Compound": "CCCC[C@@H]1NC(=O)[C@@H](NC(=O)[C@H](CCC(=O)O)NC(=O)CNC(=O)CN2CCN(CC(=O)O)CCN(CC(=O)O)CCN(CC(=O)O)CC2)CCCCNC(=O)C[C@@H](C(N)=O)NC(=O)[C@H](C(C)C)NC(=O)[C@@H]2CCCN2C(=O)[C@H](CCCNC(=N)N)NC(=O)CNC(=O)[C@H](Cc2c[nH]c3ccccc23)NC(=O)[C@H](CCCNC(=N)N)NC(=O)[C@@H](Cc2ccccc2)NC(=O)[C@H](Cc2c[nH]cn2)NC(=O)[C@H](CCC(=O)O)NC1=O [gallium-67 labelled]", "system": "C57 mice, B16/F10 lung metastases, skin", "conditions": "intravenous, 0.037 MBq/mouse, 2 h", "tissue uptake": "0.57 ± 0.19 %ID/g"}
{"note": "Some of these lines once more:"}
{"Compound": "CCCC[C@H](NC(=O)CNC(=O)CNC(=O)CN1CCN(CC(=O)O)CCN(CC(=O)O)CC1)C(=O)N[C@H]1CC(=O)NCCCC[C@@H](C(N)=O)NC(=O)[C@H](Cc2c[nH]c3ccccc23)NC(=O)[C@H](CCCNC(=N)N)NC(=O)[C@@H](Cc2ccccc2)NC(=O)[C@H](Cc2c[nH]cn2)NC1=O [gallium-67 labelled]", "system": "female C57 mice, B16/F1 melanoma, stomach", "conditions": "intravenous, 0.037 MBq, 24 h", "tissue uptake": "1.21 ± 0.4 %ID/g"}
